Experimental data collected from several papers.
Protocols differ between the studies behind these lines. Values after ≈ are worked out from the molar mass of the structure shown.

CN(C)c1cc(CN2CCOCC2)c(O)c2c1C[C@H]1C[C@H]3[C@H](N(C)C)C(O)=C(C(N)=O)C(=O)[C@@]3(O)C(O)=C1C2=O  MIC (Enterococcus faecalis; microbial growth, broth dilution): 2 µg/mL (≈ 3.59 µM)
CCC(NC(=O)CN1C(=O)N/C(=C\c2ccc(C)cc2)C1=O)C(=O)OC (stereo not drawn)  IC50 (Leishmania major; parasite growth; 24 h, intracellular, amastigote): 7.95 µM
COC(=O)CCC(NC(=O)C1OC(OC2C(OC3CCC4(C)C(CCC5(C)C4C(=O)C=C4C6CC(C)(C(=O)NC(CCC(=O)OC)C(=O)OC)CCC6(C)CCC45C)C3(C)C)OC(C(=O)NC(CCC(=O)OC)C(=O)OC)C(O)C2O)C(O)C(O)C1O)C(=O)OC (stereo not drawn)  antiviral activity (Epstein-Barr virus; viral replication, qPCR of genome copies; Raji; concentration not given): inhibited
CN(C)c1cc(CN2CCCC2)c(O)c2c1C[C@H]1C[C@H]3[C@H](N(C)C)C(O)=C(C(N)=O)C(=O)[C@@]3(O)C(O)=C1C2=O  MIC (Enterococcus faecalis; microbial growth, broth dilution): 2 µg/mL (≈ 3.7 µM)
CC1(CCCCCCCCCCOCCCOP(=O)(O)CO[C@H](CO)Cn2ccc(N)nc2=O)COC1  selectivity index (human alphaherpesvirus 3; HFF, Ellen; relative to: CC50 over EC50): > 50
C[C@@H](O)[C@H](NC(=O)c1ccc(C#Cc2ccc(CN3CCOCC3)cc2)cc1)C(=O)NO  MIC90 (Stenotrophomonas maltophilia; microbial growth, broth dilution; clinical isolate): > 64 µg/mL
Cc1cc2[nH]c(C(=O)Nc3cc(F)ccc3F)c(CN3CCCCC3)c2s1  IC50 (Giardia duodenalis; parasite growth; 48 h): > 10 µM
O=C(CCC(=O)[c-]1cccc1)NCCN(CC(=O)Nc1ccc(I)cc1)C(=O)CCc1cn(Cc2ccccc2)nn1.[C-]#[O+].[C-]#[O+].[C-]#[O+].[Mn+]  antibacterial activity (Bacillus subtilis, Staphylococcus aureus; MIC; including MRSA; up to 512 µg/mL): inactive
CC(C)=CCc1cc(-c2coc3cc(O)c(CC=C(C)C)c(O)c3c2=O)ccc1O  antibacterial activity (Enterococcus faecalis; ATCC 29212; concentration not given): inactive
CCOC(=O)CNC(=O)CN1C(=O)S/C(=C\c2ccc(OC)c(O)c2)C1=O  IC50 (Leishmania major; parasite growth; 72 h, intracellular, amastigote): 9.97 µM
Oc1c(Br)cc(Br)c2nc3c(C(F)(F)F)cc(C(F)(F)F)cc3nc12  MBEC (Staphylococcus aureus; Calgary Biofilm Device; MRSA 1707; biofilm): 1.56 µM
O=C(CCC(=O)c1ccccc1)NCCN(CC(=O)Nc1ccc(I)cc1)C(=O)CCc1cn(C[c-]2cccc2)nn1.[Fe+2].c1cc[cH-]c1  antibacterial activity (Bacillus subtilis, Staphylococcus aureus; MIC; including MRSA; up to 512 µg/mL): inactive
Nc1ccn(C[C@@H](CO)OCP(=O)(O)OCCCS(=O)(=O)CCCCCCCCCCC2CCC2)c(=O)n1  selectivity index (human alphaherpesvirus 2; HFF, G; relative to: CC50 over EC50): > 3950
CCOC(=O)C(C)NC(=O)CN1C(=O)S/C(=C\c2ccc(F)cc2)C1=O (stereo not drawn)  IC50 (Leishmania donovani; parasite growth; 72 h, intracellular, amastigote): > 10 µM
COCCCNC(=O)c1[nH]c2cc(C)sc2c1CN1CCCCC1  IC50 (Giardia duodenalis; parasite growth; 48 h): > 10 µM
CCOC(=O)C(CC)NC(=O)CN1C(=O)S/C(=C\c2ccc([N+](=O)[O-])cc2)C1=O (stereo not drawn)  IC50 (Leishmania major; parasite growth; 24 h, intracellular, amastigote): > 10 µM
CN(C)c1cc(CNCc2ccc(O)cc2)c(O)c2c1C[C@H]1C[C@H]3[C@H](N(C)C)C(O)=C(C(N)=O)C(=O)[C@@]3(O)C(O)=C1C2=O  MIC (Enterococcus faecalis; microbial growth, broth dilution): 4 µg/mL (≈ 6.75 µM)
CC[C@H](C)[C@H](NC(=O)[C@H](CS)NC(=O)[C@@H](NC(=O)[C@@H]1CCCN1C(=O)[C@H](Cc1ccccc1)NC(=O)[C@H](CC(N)=O)NC(=O)[C@@H](NC(=O)[C@H](CC(=O)O)NC(=O)CCNC(=O)CNC(=O)O[C@H]1CC[C@@]2(C)C(=CC[C@H]3[C@@H]4CC[C@H]([C@H](C)CCCC(C)C)[C@@]4(C)CC[C@@H]32)C1)[C@@H](C)O)[C@@H](C)CC)C(=O)N[C@@H](Cc1ccccc1)C(N)=O  collagen deposition (Escherichia coli; Picrosirius Red staining; mouse, lung; intratracheal, 25 nmol per mouse, 24 h): increased
COc1cc(OC)c2c(c1)C(=O)c1cc3oc(=O)cc(-c4ccc(Cl)cc4)c3c(O)c1C2=O  inhibition zone (Klebsiella aerogenes; microbial growth, disc diffusion; 100 µg/disc): 15 mm
Cc1cc2[nH]c(C(=O)NC(C)c3cccnc3)c(CN3CCCCC3)c2s1 (stereo not drawn)  IC50 (Giardia duodenalis; parasite growth; 48 h): > 10 µM
CCOC(=O)CNC(=O)CN1C(=O)S/C(=C\c2ccc(C)cc2)C1=O  IC50 (Leishmania major; parasite growth; 24 h, intracellular, amastigote): > 10 µM
COc1ccc2c(c1CC=C(C)C)O[C@H]1c3cc4c(cc3OC[C@@]21O)OC(C)(C)C=C4  antibacterial activity (Enterococcus faecalis; ATCC 29212; concentration not given): inactive
CC(=O)NCc1cc(N(C)C)c2c(c1O)C(=O)C1=C(O)[C@]3(O)C(=O)C(C(N)=O)=C(O)[C@@H](N(C)C)[C@@H]3C[C@@H]1C2  MIC (Enterococcus faecalis; JH2-2(pMV158), Tet L efflux): 4 µg/mL (≈ 7.57 µM)
CC/C(=C\c1ccc(OCC(=O)NC(C(=O)N2CCOCC2)c2ccccc2)cc1)[N+](=O)[O-] (stereo not drawn)  selectivity ratio (Leishmania donovani; THP-1, intracellular amastigotes in macrophages; relative to: CC50 THP-1 over IC50 amastigotes): 7.34
CCCCCCCCCc1nc2cc(Cl)ccc2c(=O)n1CCCN  reduction in biofilm biomass (Pseudomonas aeruginosa, Staphylococcus aureus; mixed biofilm; 100 µM, together with: tobramycin 100 µg/mL): > 95%
CN(C)c1cc(CN2CCc3ccccc3C2)c(O)c2c1C[C@H]1C[C@H]3[C@H](N(C)C)C(O)=C(C(N)=O)C(=O)[C@@]3(O)C(O)=C1C2=O  MIC (Enterococcus faecalis; microbial growth, broth dilution): 0.5 µg/mL (≈ 0.83 µM)
COc1c2c(cc3oc(=O)cc(C)c13)C(=O)c1cc(C)cc(O)c1C2=O  inhibition zone (Klebsiella aerogenes; microbial growth, disc diffusion; 100 µg/disc): 12 mm
CSc1ccc(NC(=O)c2[nH]c3cc(C)sc3c2CN(C)C)cc1  IC50 (Giardia duodenalis; parasite growth; 48 h): > 10 µM
CCOC(=O)C(CC)NC(=O)CN1C(=O)S/C(=C\c2ccc(C)cc2)C1=O (stereo not drawn)  IC50 (Leishmania major; parasite growth, resazurin; promastigote): > 100 µM
CC(=O)[O-].O.O.O.O.[Ni+2].[O-]c1ccc(Br)cc1C=NCCN1CCOCC1  inhibition zone diameter (Mucor indicus; 20 µL of 100 µM per disc): 26 mm
CCOC(=O)C(CC)NC(=O)CN1C(=O)S/C(=C\c2ccc(OC)cc2)C1=O (stereo not drawn)  IC50 (Leishmania major; parasite growth, resazurin; promastigote): > 100 µM
CC(C)C[C@H](NC(=O)[C@H](C)NC(=O)[C@H](C)NC(=O)[C@H](CC(N)=O)NC(=O)[C@H](CO)NC(=O)[C@H](CCC(=O)O)NC(=O)[C@H](CCC(=O)O)NC(=O)[C@H](CC(=O)O)NC(=O)[C@H](CCCCN)NC(=O)[C@H](CO)NC(=O)[C@H](CC(=O)O)NC(=O)[C@H](C)NC(=O)[C@@H](Cc1ccc(O)cc1)NC(=O)[C@@H](N)CO)C(=O)N[C@@H](CO)C(=O)N[C@@H](CC(=O)O)C(=O)N[C@@H](Cc1ccccc1)C(=O)N[C@@H](C)C(=O)N[C@@H](CCC(=O)O)C(=O)N[C@@H](CC(=O)O)C(=O)O  activity (Aplysia; feeding network activity, electrophysiology; buccal and cerebral ganglia; concentration not given): inactive
Brc1ccc(-c2c[nH]c(-c3ccccn3)n2)cc1  worm killing (Schistosoma mansoni; mature male and female worms; 10 µM, 96 h): 0%
CC[C@H](C)[C@@H]1NC(=O)[C@H](Cc2ccc(OC)cc2)NC(=O)[C@@H](N)CSSC[C@@H](C(=O)N2CCC[C@H]2C(=O)N[C@@H](CC(C)C)C(=O)NCC(N)=O)NC(=O)[C@H](CC(N)=O)NC(=O)[C@H](CCC(N)=O)NC1=O  relative maximal response (Bufo marinus; agonist; urinary bladder; relative to: deamino-oxytocin): 0.88
CCOC(=O)C(NC(=O)CN1C(=O)N/C(=C\c2ccc3c(c2)OCO3)C1=O)C(C)C (stereo not drawn)  IC50 (Leishmania major; parasite growth; 24 h, intracellular, amastigote): > 10 µM
Cc1cc(=O)oc2cc3c(c(C)c12)C(=O)c1c(O)cccc1C3=O  inhibition zone (Klebsiella aerogenes; microbial growth, disc diffusion; 100 µg/disc): 10 mm
c1ccc(CN2CCOCCOCCN(CCCCCCCCN3CCOCCOCCN(CCCCCCCCN4CCOCCOCCN(Cc5ccccc5)CCOCCOCC4)CCOCCOCC3)CCOCCOCC2)cc1  FIC index (Escherichia coli; tetracycline-resistant; 1/4 MIC, together with: tetracycline): < 0.5
CSc1ccccc1NC(=O)c1[nH]c2cc(C)sc2c1CN1CCOCC1  IC50 (Giardia duodenalis; parasite growth): ≤ 10 µM
Oc1ccccc1/C=N/NC(=S)Nc1cc(C(F)(F)F)cc(C(F)(F)F)c1  biofilm formation inhibition (Nakaseomyces glabratus; ATCC 28226; 2 µg/mL): ~50%

For quick reference, copied from above:
Cc1cc2[nH]c(C(=O)NC(C)c3cccnc3)c(CN3CCCCC3)c2s1 (stereo not drawn)  IC50 (Giardia duodenalis; parasite growth; 48 h): > 10 µM
Brc1ccc(-c2c[nH]c(-c3ccccn3)n2)cc1  worm killing (Schistosoma mansoni; mature male and female worms; 10 µM, 96 h): 0%
COc1c2c(cc3oc(=O)cc(C)c13)C(=O)c1cc(C)cc(O)c1C2=O  inhibition zone (Klebsiella aerogenes; microbial growth, disc diffusion; 100 µg/disc): 12 mm
CC[C@H](C)[C@@H]1NC(=O)[C@H](Cc2ccc(OC)cc2)NC(=O)[C@@H](N)CSSC[C@@H](C(=O)N2CCC[C@H]2C(=O)N[C@@H](CC(C)C)C(=O)NCC(N)=O)NC(=O)[C@H](CC(N)=O)NC(=O)[C@H](CCC(N)=O)NC1=O  relative maximal response (Bufo marinus; agonist; urinary bladder; relative to: deamino-oxytocin): 0.88
